{"data": "Assay results of several laboratories", "note": "Parts stem from different laboratories: compare values within a part only. Substitutions count along the parent as printed."}
{"data": "Series 1", "target": "RNA binding protein fox-1 homolog 2, RRM domain, GST-SBP tag (RBFOX2, Homo sapiens, UniProt O43251-10, residues 100-194)", "method": "RNA Bind-n-Seq", "form": "RNA", "matrix": "in vitro", "tested at": "365 nM", "setting": "natural RNA segment, single round, ends assumed", "baseline": "no-protein control", "reading": "higher = stronger binding", "shared flanks, not repeated": "GGGAGUUCUACAGUCCGACGAUC … UGGAAUUCUCGGGUGCCAA", "Target sequence (chain)": "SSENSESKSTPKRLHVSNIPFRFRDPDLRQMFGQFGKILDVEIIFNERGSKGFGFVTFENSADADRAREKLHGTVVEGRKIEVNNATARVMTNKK"}
{"Strand": "UCCUAUUCAUUUAGCAGUAGCUCCAUUGGGGGGUAUAGUGGUCAGAAGUAGUUACCGUACCUUAGGAUCAUUUGUAUGUCUACUUUAUCUUAACAAAGAAAACCUGGUGC", "RBNS enrichment (R)": 0.664}
{"Strand": "UAGAGUUGCUCAGAAUCUUGUAGGGUUUUCUGAUCUGGUUACCUCUAGCUGCCAUGUGGGGUCCACCUCUUGCCUCAGCAACUUUCCAGGACCUUUGAACUUGCCAGAUA", "RBNS enrichment (R)": 0.511}
{"Strand": "GAAGAUAUCUGGGAGAGAAUAUAGAAGACAUCCCAAAGGAAGUGCUGAUGGACUGUGCCCACCUUGUGAAGGCCAAUAGCAUUCAAGGUAAAAAUUGUGACAGUGGAGAA", "RBNS enrichment (R)": 0.986}
{"Strand": "GUGGACAUACUAGAGUUGAUUAUAGACACAUUGAUUUUGAAUAAGGAACUGCUGGCCGAGCCCGCUGGGAGUCUAGAAAGAGAAAAUCUGUUUCUAGACCUCAGUUAUUU", "RBNS enrichment (R)": 0.423}
{"Strand": "ACUCUAAUCAAAGGACUCUUUCUAAACCAUAUUUAUAGCUUUCUUAACCUACACAUAGUCUAUACAUAGAUGCAUAUUUUACCCCCAGCUGGCUAGAGAUUUAUUUGUUG", "RBNS enrichment (R)": 1.23}
{"Strand": "UUGCUUGAGAGGGUUUCUUUUACUUCAAAAUCUUUCUUCAGGGAGCAAGACAUGAACUGACUAAUUGGUAUCCACUACUUGUACAGCUUACAUAAAUGAGUUGAUGAUAU", "RBNS enrichment (R)": 0.354}
{"Strand": "AAUGCAUAACUCAUUGUUGUCCUAGAUAUUUUGAUAUUUACCUUUAUGUUGAAUGCUAUUAAAUGUUUUCCUGUGUCAAAGUAAAAUAUUGUUAAUAAACCUAACAAUGA", "RBNS enrichment (R)": 1.63}
{"Strand": "CUUCCAAGUUGACAGGCAAUUCCCACACUUCCUUCCUGUCCUGAGUGCCCCAGACUUUAACUGUGUAAAUAAGAGUGUUUCAUUCAAAUGUUAAUAAACUUUACACAGUA", "RBNS enrichment (R)": 0.503}
{"data": "Series 2", "target": "Sal-like protein 4, full length isoform A (SALL4, Homo sapiens, UniProt Q9UJQ4, residues 1-1053)", "method": "universal PBM", "form": "double-stranded DNA, one strand shown", "matrix": "in vitro", "tested at": "600 nM", "setting": "8-mer, flanks averaged, mean of replicates", "reading": "higher = stronger binding", "chain of UniProt Q9UJQ4 (whole entry, looked up)": "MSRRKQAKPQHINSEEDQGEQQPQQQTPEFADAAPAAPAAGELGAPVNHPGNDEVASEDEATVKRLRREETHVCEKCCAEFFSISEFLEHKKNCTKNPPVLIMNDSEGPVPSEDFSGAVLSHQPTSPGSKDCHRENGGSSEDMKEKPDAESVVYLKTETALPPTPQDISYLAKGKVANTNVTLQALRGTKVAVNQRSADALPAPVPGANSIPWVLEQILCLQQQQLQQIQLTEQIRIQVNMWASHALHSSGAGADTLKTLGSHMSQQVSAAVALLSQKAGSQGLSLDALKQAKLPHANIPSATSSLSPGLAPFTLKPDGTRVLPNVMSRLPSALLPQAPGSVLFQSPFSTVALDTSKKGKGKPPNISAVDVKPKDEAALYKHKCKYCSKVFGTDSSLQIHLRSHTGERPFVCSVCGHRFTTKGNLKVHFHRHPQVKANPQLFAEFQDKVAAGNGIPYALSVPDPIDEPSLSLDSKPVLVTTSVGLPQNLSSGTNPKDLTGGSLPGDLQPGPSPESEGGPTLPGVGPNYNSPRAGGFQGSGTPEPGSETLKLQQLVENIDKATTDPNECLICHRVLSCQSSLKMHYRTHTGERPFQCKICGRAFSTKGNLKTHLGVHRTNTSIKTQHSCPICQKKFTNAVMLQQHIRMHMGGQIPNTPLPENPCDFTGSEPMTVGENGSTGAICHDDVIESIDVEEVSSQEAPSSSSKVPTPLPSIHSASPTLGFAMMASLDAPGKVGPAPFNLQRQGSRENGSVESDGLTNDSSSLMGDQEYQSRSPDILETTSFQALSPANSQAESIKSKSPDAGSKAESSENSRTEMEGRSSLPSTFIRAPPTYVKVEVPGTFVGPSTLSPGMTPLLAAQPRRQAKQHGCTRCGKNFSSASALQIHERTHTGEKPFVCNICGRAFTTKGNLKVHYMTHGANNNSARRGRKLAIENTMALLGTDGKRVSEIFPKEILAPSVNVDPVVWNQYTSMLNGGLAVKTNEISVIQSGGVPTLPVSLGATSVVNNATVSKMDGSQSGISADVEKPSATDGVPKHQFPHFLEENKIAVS"}
{"Strand": "GAAGAATC", "E-score": -0.073}
{"Strand": "CTCTCCCC", "E-score": -0.298}
{"Strand": "CTACACAC", "E-score": 0.0931}
{"Strand": "AACTAGCG", "E-score": -0.097}
{"Strand": "CACTAGTG", "E-score": -0.132}
{"Strand": "ATTAAACC", "E-score": 0.237}
{"Strand": "GAGGAGGC", "E-score": -0.364}
{"Strand": "ACGTACTG", "E-score": 0.0114}
{"data": "Other studies, line by line", "P1": "PafA, mature enzyme, eGFP fusion (Elizabethkingia meningoseptica, UniProt Q9KJX5); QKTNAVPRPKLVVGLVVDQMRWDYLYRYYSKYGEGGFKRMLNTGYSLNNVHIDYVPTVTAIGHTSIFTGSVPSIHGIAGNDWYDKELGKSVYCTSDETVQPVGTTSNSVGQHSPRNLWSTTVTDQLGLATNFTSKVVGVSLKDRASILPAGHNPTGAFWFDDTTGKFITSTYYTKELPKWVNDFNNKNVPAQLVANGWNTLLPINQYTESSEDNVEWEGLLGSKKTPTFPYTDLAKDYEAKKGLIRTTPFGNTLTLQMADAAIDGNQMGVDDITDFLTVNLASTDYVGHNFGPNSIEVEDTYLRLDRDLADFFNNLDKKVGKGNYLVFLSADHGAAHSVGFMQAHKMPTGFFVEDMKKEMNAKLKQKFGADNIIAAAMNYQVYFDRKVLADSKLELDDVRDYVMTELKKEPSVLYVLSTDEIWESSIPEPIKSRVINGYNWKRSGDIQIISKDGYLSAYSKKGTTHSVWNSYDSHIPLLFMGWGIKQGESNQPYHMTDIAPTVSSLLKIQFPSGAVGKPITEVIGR"}
{"Molecule": "P1 L389V", "target or system": "tungstate, free oxyanion", "test": "microfluidic competitive inhibition", "system": "in vitro, cell-free expressed", "conditions": "not given, derived from inhibition constants, unchanged parent 2230 nM", "scale": "lower = stronger binding", "measurement": "oxyanion analog dissociation constant", "value": "1900 nM"}
{"Molecule": "DLAT (Homo sapiens, UniProt P10515)", "target or system": "TTN (Homo sapiens, UniProt Q8WZ42)", "test": "cross-linking MS", "conditions": "hits only", "measurement": "interaction screen", "value": "cross-linked"}
{"note": "A few entries again (series 1):"}
{"Strand": "CUUCCAAGUUGACAGGCAAUUCCCACACUUCCUUCCUGUCCUGAGUGCCCCAGACUUUAACUGUGUAAAUAAGAGUGUUUCAUUCAAAUGUUAAUAAACUUUACACAGUA", "RBNS enrichment (R)": 0.503}
{"Strand": "GAAGAUAUCUGGGAGAGAAUAUAGAAGACAUCCCAAAGGAAGUGCUGAUGGACUGUGCCCACCUUGUGAAGGCCAAUAGCAUUCAAGGUAAAAAUUGUGACAGUGGAGAA", "RBNS enrichment (R)": 0.986}
{"Strand": "GUGGACAUACUAGAGUUGAUUAUAGACACAUUGAUUUUGAAUAAGGAACUGCUGGCCGAGCCCGCUGGGAGUCUAGAAAGAGAAAAUCUGUUUCUAGACCUCAGUUAUUU", "RBNS enrichment (R)": 0.423}
